Results of several laboratories.
Each numbered part is a random draw from the data of one study; scales do not carry over between parts.
Sequence of UniProt Q05941 (whole entry, looked up): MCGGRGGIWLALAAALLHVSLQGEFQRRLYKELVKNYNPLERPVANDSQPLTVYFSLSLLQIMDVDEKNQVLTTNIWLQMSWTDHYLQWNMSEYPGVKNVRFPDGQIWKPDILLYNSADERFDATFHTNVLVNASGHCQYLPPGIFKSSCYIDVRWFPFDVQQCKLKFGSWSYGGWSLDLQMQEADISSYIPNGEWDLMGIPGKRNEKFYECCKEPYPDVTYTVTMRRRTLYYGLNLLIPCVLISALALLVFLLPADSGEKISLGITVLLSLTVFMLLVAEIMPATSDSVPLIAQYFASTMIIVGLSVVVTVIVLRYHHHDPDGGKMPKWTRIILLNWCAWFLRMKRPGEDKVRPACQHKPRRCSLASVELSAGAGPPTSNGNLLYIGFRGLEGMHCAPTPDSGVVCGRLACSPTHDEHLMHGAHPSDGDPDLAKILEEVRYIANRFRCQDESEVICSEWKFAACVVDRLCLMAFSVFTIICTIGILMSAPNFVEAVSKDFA
Sequence of UniProt P36544 (whole entry, looked up): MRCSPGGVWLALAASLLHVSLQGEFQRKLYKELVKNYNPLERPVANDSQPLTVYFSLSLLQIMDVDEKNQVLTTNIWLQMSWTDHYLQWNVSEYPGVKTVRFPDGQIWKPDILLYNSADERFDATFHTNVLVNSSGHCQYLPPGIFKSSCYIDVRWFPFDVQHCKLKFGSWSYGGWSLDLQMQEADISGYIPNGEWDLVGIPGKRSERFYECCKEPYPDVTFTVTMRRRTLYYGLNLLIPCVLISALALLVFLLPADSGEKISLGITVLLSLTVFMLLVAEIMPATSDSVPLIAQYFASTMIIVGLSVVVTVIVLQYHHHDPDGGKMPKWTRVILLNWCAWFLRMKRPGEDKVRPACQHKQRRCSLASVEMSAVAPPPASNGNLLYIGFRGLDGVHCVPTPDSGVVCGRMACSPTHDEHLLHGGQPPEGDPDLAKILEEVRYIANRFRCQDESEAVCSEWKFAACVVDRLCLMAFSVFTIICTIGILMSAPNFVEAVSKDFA

Sample 1
Target: Nicotinic acetylcholine receptor alpha9/alpha10 (Rattus norvegicus, UniProt P43144+Q9JLB5)
Sequence of UniProt P43144 (whole entry, looked up): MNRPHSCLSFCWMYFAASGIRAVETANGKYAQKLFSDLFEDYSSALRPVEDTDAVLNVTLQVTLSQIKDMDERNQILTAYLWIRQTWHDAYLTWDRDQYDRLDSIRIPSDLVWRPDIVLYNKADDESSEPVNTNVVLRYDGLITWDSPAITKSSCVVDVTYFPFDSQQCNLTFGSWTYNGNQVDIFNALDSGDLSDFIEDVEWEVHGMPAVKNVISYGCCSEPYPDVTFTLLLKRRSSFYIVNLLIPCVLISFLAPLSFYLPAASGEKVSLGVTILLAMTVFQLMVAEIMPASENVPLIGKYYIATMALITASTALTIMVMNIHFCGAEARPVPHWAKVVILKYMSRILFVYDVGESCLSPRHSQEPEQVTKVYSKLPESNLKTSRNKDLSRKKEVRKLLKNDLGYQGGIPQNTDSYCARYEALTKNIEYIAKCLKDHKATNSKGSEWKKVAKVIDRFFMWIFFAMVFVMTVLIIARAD
Sequence of UniProt Q9JLB5 (whole entry, looked up): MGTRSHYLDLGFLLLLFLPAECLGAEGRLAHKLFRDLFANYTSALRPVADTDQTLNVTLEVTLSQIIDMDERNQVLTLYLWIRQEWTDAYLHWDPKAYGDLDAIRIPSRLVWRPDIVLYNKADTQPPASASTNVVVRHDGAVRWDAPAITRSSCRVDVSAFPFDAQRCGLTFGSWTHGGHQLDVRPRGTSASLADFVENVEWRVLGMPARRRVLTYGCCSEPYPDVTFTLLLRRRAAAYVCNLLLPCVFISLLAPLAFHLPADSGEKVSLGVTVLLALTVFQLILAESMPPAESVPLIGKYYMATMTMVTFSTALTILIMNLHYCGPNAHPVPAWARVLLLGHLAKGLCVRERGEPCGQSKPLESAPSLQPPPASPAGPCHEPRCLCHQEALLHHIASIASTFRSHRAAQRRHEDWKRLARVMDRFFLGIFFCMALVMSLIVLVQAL
Action: antagonist
Tested at: concentration not given
| Compound | IC50 |
| --- | --- |
| N=C(N)NCCC[C@H](NC(=O)[C@@H]1CSSC[C@@H]2NC(=O)[C@@H](NC(=O)CN)CSSC[C@H](NC(=O)[C@H](CCNC(=N)N)NC(=O)[C@@H]3CCCN3C(=O)[C@H](CC(=O)O)NC(=O)[C@H](CO)NC2=O)C(=O)N[C@@H](CCCNC(=N)N)C(=O)N[C@@H](Cc2ccc(O)cc2)C(=O)N[C@@H](CCCNC(=N)N)C(=O)N1)C(=O)O | > 1 µM |
| N=C(N)NCCCC[C@@H]1NC(=O)[C@H](Cc2ccc(O)cc2)NC(=O)[C@H](CCCNC(=N)N)NC(=O)[C@@H]2CSSC[C@H](NC(=O)CN)C(=O)N[C@@H](CSSC[C@@H](C(=O)N[C@@H](CCCNC(=N)N)C(=O)O)NC1=O)C(=O)N[C@@H](CO)C(=O)N[C@@H](CC(=O)O)C(=O)N1CCC[C@H]1C(=O)N[C@@H](CCCNC(=N)N)C(=O)N2 | 0.0015 µM |
| N=C(N)NCCC[C@H](NC(=O)[C@@H]1CSSC[C@@H]2NC(=O)[C@@H](NC(=O)CN)CSSC[C@H](NC(=O)[C@H](CCCNC(=N)N)NC(=O)[C@@H]3CCCN3C(=O)[C@H](CC(=O)O)NC(=O)[C@H](CO)NC2=O)C(=O)N[C@@H](CCCNC(=N)N)C(=O)N[C@@H](Cc2ccc(O)cc2)C(=O)N[C@@H](CCCNC(N)=O)C(=O)N1)C(=O)O | 0.0199 µM |

Single results of other studies
| Compound | target | test | setting | measurement | result |
| --- | --- | --- | --- | --- | --- |
| CC[C@H](C)[C@@H]1NC(=O)[C@H](CCC(=O)O)NC(=O)[C@@H]2CCCN2C(=O)[C@H](Cc2cnc[nH]2)NC(=O)[C@H](CC(=O)O)NC(=O)[C@H](C(C)C)NC(=O)[C@H](CC(N)=O)NC(=O)[C@@H]2CSSC[C@H](NC(=O)CN)C(=O)N[C@@H](CSSC[C@@H](C(N)=O)NC1=O)C(=O)N[C@@H](CO)C(=O)N[C@@H](Cc1cnc[nH]1)C(=O)N1CCC[C@H]1C(=O)N[C@@H](C)C(=O)N2 | Neuronal acetylcholine receptor subunit alpha-7 (CHRNA7, Homo sapiens, UniProt P36544) | – | cell-based | IC50 | > 10 µM |
| CC(=O)N[C@@H](CC(=O)O)C(=O)N[C@@H](CCC(=O)O)C(=O)N[C@@H](Cc1ccc(OP(=O)(O)O)cc1)C(=O)N[C@@H](CC(=O)O)C(=O)N[C@@H](CC(=O)O)C(=O)N1CCC[C@H]1C(=O)N[C@@H](Cc1ccccc1)C(N)=O | Secreted effector protein, N-terminal domain (Yersinia pestis, UniProt O68720) | binding, ITC | – | ΔH | -69 kJ/mol |
| CC[C@H](C)[C@@H]1NC(=O)[C@@H]2CCCN2C(=O)[C@H](CO)NC(=O)[C@H](CCSC)NC(=O)[C@H](C)NC(=O)[C@H](C)NC(=O)[C@@H]2CSSC[C@H](NC(=O)CN)C(=O)N[C@@H](CSSC[C@@H](C(N)=O)NC1=O)C(=O)N[C@@H](CO)C(=O)N[C@@H](Cc1cnc[nH]1)C(=O)N1CCC[C@H]1C(=O)N[C@@H](C(C)C)C(=O)N2 | Neuronal acetylcholine receptor subunit alpha-7 (Chrna7, Rattus norvegicus, UniProt Q05941) | antagonist | – | IC50 | > 10 µM |

For quick reference, copied from above (single results of other studies):
| Compound | target | test | setting | measurement | result |
| --- | --- | --- | --- | --- | --- |
| CC(=O)N[C@@H](CC(=O)O)C(=O)N[C@@H](CCC(=O)O)C(=O)N[C@@H](Cc1ccc(OP(=O)(O)O)cc1)C(=O)N[C@@H](CC(=O)O)C(=O)N[C@@H](CC(=O)O)C(=O)N1CCC[C@H]1C(=O)N[C@@H](Cc1ccccc1)C(N)=O | Secreted effector protein, N-terminal domain (Yersinia pestis, UniProt O68720) | binding, ITC | – | ΔH | -69 kJ/mol |
